Assay results pooled from the literature.
Each line is one published result; not all experiments were run side by side. ± marks the error that the study gave.
Tumor necrosis factor receptor superfamily member 9/Nectin-4: Tumor necrosis factor receptor superfamily member 9/Nectin-4 (Homo sapiens, UniProt Q07011+Q96NY8)
UniProt Q96NY8, sequence (whole entry, looked up): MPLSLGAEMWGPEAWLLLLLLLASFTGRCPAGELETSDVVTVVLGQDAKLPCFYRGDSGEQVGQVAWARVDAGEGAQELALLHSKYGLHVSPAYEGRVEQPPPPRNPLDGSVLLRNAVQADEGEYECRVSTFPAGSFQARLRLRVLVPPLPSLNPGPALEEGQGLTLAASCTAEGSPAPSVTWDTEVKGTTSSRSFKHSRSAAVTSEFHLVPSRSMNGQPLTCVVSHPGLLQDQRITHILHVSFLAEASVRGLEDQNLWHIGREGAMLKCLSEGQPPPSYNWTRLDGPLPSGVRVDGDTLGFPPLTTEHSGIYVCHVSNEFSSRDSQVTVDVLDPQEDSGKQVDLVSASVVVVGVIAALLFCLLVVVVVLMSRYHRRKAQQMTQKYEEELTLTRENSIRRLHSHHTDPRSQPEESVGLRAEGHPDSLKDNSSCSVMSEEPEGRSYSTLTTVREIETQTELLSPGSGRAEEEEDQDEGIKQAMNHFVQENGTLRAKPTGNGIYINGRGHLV
UniProt Q07011, sequence (whole entry, looked up): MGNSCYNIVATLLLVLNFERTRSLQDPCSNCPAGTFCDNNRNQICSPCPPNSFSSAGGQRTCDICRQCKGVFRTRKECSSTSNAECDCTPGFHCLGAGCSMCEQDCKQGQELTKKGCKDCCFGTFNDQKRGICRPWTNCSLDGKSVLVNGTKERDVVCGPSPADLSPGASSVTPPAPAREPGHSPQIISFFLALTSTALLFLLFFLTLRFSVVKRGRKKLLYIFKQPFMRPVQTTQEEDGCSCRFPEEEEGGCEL
SLC47A2: Multidrug and toxin extrusion protein 2 (SLC47A2, Homo sapiens, UniProt Q86VL8)
UniProt Q86VL8, sequence (whole entry, looked up): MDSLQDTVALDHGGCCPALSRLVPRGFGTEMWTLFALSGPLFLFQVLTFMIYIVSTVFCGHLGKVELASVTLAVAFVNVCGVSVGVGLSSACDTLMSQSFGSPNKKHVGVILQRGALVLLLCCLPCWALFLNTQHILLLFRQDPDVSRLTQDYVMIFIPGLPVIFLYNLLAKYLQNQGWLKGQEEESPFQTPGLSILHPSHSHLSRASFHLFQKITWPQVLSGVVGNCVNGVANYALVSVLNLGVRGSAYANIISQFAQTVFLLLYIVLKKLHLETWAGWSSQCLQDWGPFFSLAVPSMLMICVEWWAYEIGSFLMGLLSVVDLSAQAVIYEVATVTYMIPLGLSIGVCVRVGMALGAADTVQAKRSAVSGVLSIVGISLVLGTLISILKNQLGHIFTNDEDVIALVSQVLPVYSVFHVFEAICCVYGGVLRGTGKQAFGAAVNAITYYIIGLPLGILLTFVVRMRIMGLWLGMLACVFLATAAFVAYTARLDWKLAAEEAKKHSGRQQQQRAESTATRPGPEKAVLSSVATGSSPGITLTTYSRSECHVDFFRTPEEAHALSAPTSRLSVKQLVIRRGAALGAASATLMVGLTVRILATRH
UniProt Q9UNQ0, sequence (whole entry, looked up): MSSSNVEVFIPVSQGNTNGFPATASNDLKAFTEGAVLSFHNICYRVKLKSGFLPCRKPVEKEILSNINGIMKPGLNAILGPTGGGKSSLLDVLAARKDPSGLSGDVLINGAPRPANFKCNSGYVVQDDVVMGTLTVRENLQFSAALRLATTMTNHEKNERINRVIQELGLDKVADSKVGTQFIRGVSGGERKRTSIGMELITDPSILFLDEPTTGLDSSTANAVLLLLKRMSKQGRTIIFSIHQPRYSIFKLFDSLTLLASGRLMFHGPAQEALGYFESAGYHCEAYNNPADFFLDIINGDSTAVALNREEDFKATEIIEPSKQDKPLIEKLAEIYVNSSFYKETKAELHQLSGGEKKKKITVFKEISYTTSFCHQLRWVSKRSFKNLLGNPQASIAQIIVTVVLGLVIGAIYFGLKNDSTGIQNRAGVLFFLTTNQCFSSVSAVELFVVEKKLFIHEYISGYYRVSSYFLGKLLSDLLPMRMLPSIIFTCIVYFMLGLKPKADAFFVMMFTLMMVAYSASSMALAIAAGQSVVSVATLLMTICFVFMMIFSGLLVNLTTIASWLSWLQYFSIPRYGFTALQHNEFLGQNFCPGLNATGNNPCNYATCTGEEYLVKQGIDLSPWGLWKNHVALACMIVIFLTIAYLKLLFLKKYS
UniProt P33261, sequence (whole entry, looked up): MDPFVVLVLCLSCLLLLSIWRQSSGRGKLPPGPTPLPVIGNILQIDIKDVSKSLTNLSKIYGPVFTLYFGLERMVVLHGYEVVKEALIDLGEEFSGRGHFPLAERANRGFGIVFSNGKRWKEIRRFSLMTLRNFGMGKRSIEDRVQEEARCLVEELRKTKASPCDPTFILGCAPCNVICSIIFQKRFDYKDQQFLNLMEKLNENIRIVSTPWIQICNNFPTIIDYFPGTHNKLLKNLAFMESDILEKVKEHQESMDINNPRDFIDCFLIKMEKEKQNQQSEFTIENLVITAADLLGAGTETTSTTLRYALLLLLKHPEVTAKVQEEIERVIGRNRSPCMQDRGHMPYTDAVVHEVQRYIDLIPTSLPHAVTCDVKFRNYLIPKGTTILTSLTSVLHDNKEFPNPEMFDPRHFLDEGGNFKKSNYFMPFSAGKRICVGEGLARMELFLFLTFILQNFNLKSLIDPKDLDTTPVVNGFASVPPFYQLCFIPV
UniProt Q9NPD5, sequence (whole entry, looked up): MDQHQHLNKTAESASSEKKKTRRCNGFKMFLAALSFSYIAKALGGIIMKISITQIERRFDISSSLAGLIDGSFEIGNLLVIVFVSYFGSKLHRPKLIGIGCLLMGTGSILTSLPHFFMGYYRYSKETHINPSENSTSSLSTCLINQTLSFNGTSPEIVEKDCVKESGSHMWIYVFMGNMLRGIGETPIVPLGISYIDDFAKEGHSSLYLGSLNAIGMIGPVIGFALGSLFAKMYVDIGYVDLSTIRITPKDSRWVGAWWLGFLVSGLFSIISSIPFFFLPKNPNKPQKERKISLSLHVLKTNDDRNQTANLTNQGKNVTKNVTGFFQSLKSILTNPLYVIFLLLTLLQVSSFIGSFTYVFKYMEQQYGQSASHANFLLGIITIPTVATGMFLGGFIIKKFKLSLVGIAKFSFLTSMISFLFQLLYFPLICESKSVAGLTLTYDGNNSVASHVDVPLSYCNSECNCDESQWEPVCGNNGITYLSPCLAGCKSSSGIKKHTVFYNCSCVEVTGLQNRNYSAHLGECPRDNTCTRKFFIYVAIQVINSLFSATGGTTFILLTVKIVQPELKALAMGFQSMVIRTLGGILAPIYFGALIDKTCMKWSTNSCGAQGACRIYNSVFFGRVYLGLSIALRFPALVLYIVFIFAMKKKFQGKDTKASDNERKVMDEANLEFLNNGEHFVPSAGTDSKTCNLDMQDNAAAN

| SMILES | target or system | test | system | setting | how to read | quantity | value |
| --- | --- | --- | --- | --- | --- | --- | --- |
| CCCC[C@@H]1NC(=O)[C@H](Cc2ccc(O)cc2)NC(=O)[C@@H]2CCCN2C(=O)[C@H](CC(=O)O)NC(=O)[C@H](C)NC(=O)[C@H](Cc2ccccc2)NC(=O)[C@@H]2CSCCC(=O)N3CN(CN(C3)C(=O)CCSC[C@H](NC(C)=O)C(=O)N[C@@H](CC(C)(C)C)C(=O)N3CCC[C@H]3C(=O)N[C@@H](CCC(=O)O)C(=O)N[C@H](CCCCNC(=O)CCc3cn(CCOCCOCCOCCN(CCOCCOCCOCCC(=O)N[C@H]4CSCCC(=O)N5CN6CN(C5)C(=O)CCSC[C@H](NC(=O)[C@@H](CC(=O)O)NC(=O)[C@H](Cc5cccc7ccccc57)NC(=O)[C@@H]5CCCN5C4=O)C(=O)N[C@@H](CCSC)C(=O)N[C@@H](CCCCNC(=N)N)C(=O)N[C@@H](CC(=O)O)C(=O)N[C@@H](Cc4c[nH]c5ccccc45)C(=O)N[C@@H](CO)C(=O)N[C@@H]([C@@H](C)O)C(=O)N4CCC[C@H]4C(=O)N4C[C@H](O)C[C@H]4C(=O)N[C@@H](Cc4c[nH]c5ccccc45)C(=O)N[C@H](C(N)=O)CSCCC6=O)CCOCCOCCOCCn4cc(CCC(=O)NCCCC[C@H]5NC(=O)[C@H](CCC(=O)O)NC(=O)[C@@H]6CCCN6C(=O)[C@H](CC(C)(C)C)NC(=O)[C@@H](NC(C)=O)CSCCC(=O)N6CN7CN(C6)C(=O)CCSC[C@H](NC(=O)[C@H](Cc6ccc(O)cc6)NC(=O)[C@@H]6CCCN6C5=O)C(=O)N[C@@H](Cc5ccccc5)C(=O)N[C@@H](C)C(=O)N[C@@H](CC(=O)O)C(=O)N5CCC[C@H]5C(=O)N[C@@H](Cc5ccc(O)cc5)C(=O)N[C@@H](CCCC)C(=O)NCCSCCC7=O)nn4)nn3)C(=O)N3CCC[C@H]3C(=O)N[C@@H](Cc3ccc(O)cc3)C(=O)N2)C(=O)CCSCCNC1=O | Tumor necrosis factor receptor superfamily member 9/Nectin-4 | reporter gene, agonist, luciferase reporter | CD137 Jurkat reporter with HT-1376 | 6 h, geometric mean | relative to: wells without compound | Emax | 75 fold |
| O=C(O)C(F)(F)C(F)(F)C(F)(F)C(F)(F)C(F)(F)C(F)(F)C(F)(F)F | SLCO1B3 (Homo sapiens, UniProt Q9NPD5) | uptake, substrate | CHO cells stably expressing SLCO1B3, HBSS with HEPES | pH 7.4 |  | CLint | 29.4 ± 11.4 µL/min/mg |
| COc1ccc2cc1Oc1ccc(cc1)C[C@H]1c3cc(c(OC)cc3CCN1C)Oc1c(OC)c(OC)cc3c1[C@H](C2)N(C)CC3 | SLC47A2 | transport activity, inhibitor |  | 10 µM, 10 (unit not given), together with: thiamine |  | inhibition | 27% |
| CCN(CC)CCNC(=O)c1ccc(-c2nc(CN3CCc4ccccc43)c(C)o2)cc1 | Vero-E6 | CellTiter-Glo ATP |  | concentration not given, 72 h, second round 5-point | relative to: DMSO 0%, hyamine -100%, more negative, more toxic | cytotoxicity efficacy | 0% |
| CC1(C)C(/C=C(\Cl)C(F)(F)F)C1C(=O)OC(C#N)c1cccc(Oc2ccccc2)c1 (stereo not shown) | human CYP2C8 | IVIVE from expressed enzymes | human, liver, in vivo scaled | age-specific |  | enzyme contribution to CLint | 0.09% |
| COCCCNC(=O)C1CCN(Cc2cc3ccccc3n2Cc2cccc(Cl)c2)CC1 | Vero-E6 | CellTiter-Glo ATP |  | concentration not given, 72 h, retest 8-point duplicates | relative to: DMSO 0%, hyamine -100%, more negative, more toxic | cytotoxicity efficacy | 0% |
| Clc1ccc(C(c2ccccc2Cl)C(Cl)(Cl)Cl)cc1 (stereo not shown) | ABCG2 (Homo sapiens, UniProt Q9UNQ0) | inhibition, inhibitor |  | 0.03 to 100 µM, together with: sulfasalazine 10 µM |  | BCRP ATPase activity | inhibited |
| O=C(Nc1cccnn1)N1CCC(=Cc2cccc(Oc3ccc(C(F)(F)F)cn3)c2)CC1 | CYP2C19 (Homo sapiens, UniProt P33261) | enzyme activity, inhibitor |  | 10 µM, together with: 3-cyano-7-ethoxycoumarin substrate |  | inhibition | 64% |
| CCOC(=O)C1=C[C@@H](OC(CC)CC)[C@H](NC(C)=O)[C@@H](N)C1 | SLC47A2 | transport, inhibitor | transiently transfected cells | 100 µM, 10 (unit not given), together with: thiamine |  | inhibition | 24.5% |
| CCCC[C@@H]1NC(=O)[C@H](Cc2ccc(O)cc2)NC(=O)[C@@H]2CCCN2C(=O)[C@H](CC(=O)O)NC(=O)[C@H](C)NC(=O)[C@H](Cc2ccccc2)NC(=O)[C@@H]2CSCCC(=O)N3CN(CN(C3)C(=O)CCSC[C@@H](C(N)=O)NC1=O)C(=O)CCSCCC(=O)N[C@@H](CC(C)(C)C)C(=O)N1CCC[C@H]1C(=O)N[C@@H](CCC(=O)O)C(=O)N[C@H](CCCCNC(=O)CCc1cn(CCOCCOCCOCCN(CCOCCOCCOCCC(=O)N[C@H]3CSCCC(=O)N4CN5CN(C4)C(=O)CCSC[C@H](NC(=O)[C@@H](CC(=O)O)NC(=O)[C@H](Cc4cccc6ccccc46)NC(=O)[C@@H]4CCCN4C3=O)C(=O)N[C@@H](CCSC)C(=O)N[C@@H](CCCCNC(=N)N)C(=O)N[C@@H](CC(=O)O)C(=O)N[C@@H](Cc3c[nH]c4ccccc34)C(=O)N[C@@H](CO)C(=O)N[C@@H]([C@@H](C)O)C(=O)N3CCC[C@H]3C(=O)N3C[C@H](O)C[C@H]3C(=O)N[C@@H](Cc3c[nH]c4ccccc34)C(=O)N[C@H](C(N)=O)CSCCC5=O)CCOCCOCCOCCn3cc(CCC(=O)NCCCC[C@H]4NC(=O)[C@H](CCC(=O)O)NC(=O)[C@@H]5CCCN5C(=O)[C@H](CC(C)(C)C)NC(=O)CCSCCC(=O)N5CN6CN(C5)C(=O)CCSC[C@H](NC(=O)[C@H](Cc5ccc(O)cc5)NC(=O)[C@@H]5CCCN5C4=O)C(=O)N[C@@H](Cc4ccccc4)C(=O)N[C@@H](C)C(=O)N[C@@H](CC(=O)O)C(=O)N4CCC[C@H]4C(=O)N[C@@H](Cc4ccc(O)cc4)C(=O)N[C@@H](CCCC)C(=O)N[C@H](C(N)=O)CSCCC6=O)nn3)nn1)C(=O)N1CCC[C@H]1C(=O)N[C@@H](Cc1ccc(O)cc1)C(=O)N2 | Tumor necrosis factor receptor superfamily member 9/Nectin-4 | reporter gene, agonist, luciferase reporter | CD137 Jurkat reporter with HT-1376 | 6 h, geometric mean | relative to: wells without compound | Emax | 67 fold |
| NC(=O)c1nc(F)c[nH]c1=O | SLC47A2 | transport, inhibitor | transiently transfected cells | 100 µM, 10 (unit not given), together with: thiamine |  | inhibition | 24.8% |
| CCCC[C@@H]1NC(=O)[C@H](Cc2ccc(O)cc2)NC(=O)[C@@H]2CCCN2C(=O)[C@H](CC(=O)O)NC(=O)[C@H](C)NC(=O)[C@H](Cc2ccccc2)NC(=O)[C@@H]2CSCCC(=O)N3CN(CN(C3)C(=O)CCSC[C@@H](C(=O)N[C@@H](C)C(N)=O)NC1=O)C(=O)CCSC[C@H](NC(C)=O)C(=O)N[C@@H](CC(C)(C)C)C(=O)N1CCC[C@H]1C(=O)N[C@@H](CCC(=O)O)C(=O)N[C@H](CCCCNC(=O)CCc1cn(CCOCCOCCOCCOCCOCCC(=O)N[C@H]3CSCCC(=O)N4CN5CN(C4)C(=O)CCSC[C@H](NC(=O)[C@@H](CCC(=O)O)NC(=O)[C@H](Cc4cccc6ccccc46)NC(=O)[C@@H]4CCCN4C3=O)C(=O)N[C@@H](CC(C)C)C(=O)N[C@@H](CCCCNC(=N)N)C(=O)N[C@@H](CC(=O)O)C(=O)N[C@@H](Cc3c[nH]c4ccccc34)C(=O)N[C@@H](CO)C(=O)N[C@@H]([C@@H](C)O)C(=O)N3CCC[C@H]3C(=O)N3C[C@H](O)C[C@H]3C(=O)N[C@@H](Cc3c[nH]c4ccccc34)C(=O)N[C@H](C(N)=O)CSCCC5=O)nn1)C(=O)N1CCC[C@H]1C(=O)N[C@@H](Cc1ccc(O)cc1)C(=O)N2 | Tumor necrosis factor receptor superfamily member 9/Nectin-4 | reporter gene, agonist, luciferase reporter | CD137 Jurkat reporter with HT-1376 | 6 h, geometric mean | relative to: wells without compound | Emax | 41 fold |
| CC1(C)[C@H](C=C(Cl)Cl)[C@H]1C(=O)OCc1cccc(Oc2ccccc2)c1 | CES2 human cytosolic |  |  | 0.1 µM, age 6 months |  | enzyme contribution | 9.17% |
| CCC(CC)COC(=O)[C@H](C)N[P@](=O)(OC[C@H]1O[C@@](C#N)(c2ccc3c(N)ncnn23)[C@H](O)[C@@H]1O)Oc1ccccc1 | SLC47A2 | transport, inhibitor | transiently transfected cells | 100 µM, 10 (unit not given), together with: thiamine |  | inhibition | 68.6% |
| CCCC[C@@H]1NC(=O)[C@H](Cc2ccc(O)cc2)NC(=O)[C@@H]2CCCN2C(=O)[C@H](CC(=O)O)NC(=O)[C@H](C)NC(=O)[C@H](Cc2ccccc2)NC(=O)[C@@H]2CSCCC(=O)N3CN(CN(C3)C(=O)CCSC[C@@H](C(=O)N[C@@H](CNC(=O)CCOCCOCCOCCOCCOCCn3cc(CCC(=O)N[C@H]4CSCCC(=O)N5CN6CN(C5)C(=O)CCSC[C@H](NC(=O)[C@@H](CC(=O)O)NC(=O)[C@H](Cc5cccc7ccccc57)NC(=O)[C@@H]5CCCN5C4=O)C(=O)N[C@@H](CCSC)C(=O)N[C@@H](CCCCNC(=N)N)C(=O)N[C@@H](CC(=O)O)C(=O)N[C@@H](Cc4c[nH]c5ccccc45)C(=O)N[C@@H](CO)C(=O)N[C@@H]([C@@H](C)O)C(=O)N4CCC[C@H]4C(=O)N4C[C@H](O)C[C@H]4C(=O)N[C@@H](Cc4c[nH]c5ccccc45)C(=O)N[C@H](C(N)=O)CSCCC6=O)nn3)C(N)=O)NC1=O)C(=O)CCSC[C@H](NC(C)=O)C(=O)N[C@@H](CC(C)(C)C)C(=O)N1CCC[C@H]1C(=O)N[C@@H](CCC(=O)O)C(=O)N[C@H](C)C(=O)N1CCC[C@H]1C(=O)N[C@@H](Cc1ccc(O)cc1)C(=O)N2 | Tumor necrosis factor receptor superfamily member 9/Nectin-4 | reporter gene, agonist, luciferase reporter | CD137 Jurkat reporter with HT-1376 | 6 h, geometric mean | relative to: wells without compound | Emax | 31 fold |
| CC1(C)C(C=C(Cl)Cl)C1C(=O)OC(C#N)c1ccc(F)c(Oc2ccccc2)c1 (stereo not shown) | CES2 human cytosolic |  |  | 0.1 µM, age 1 year |  | enzyme contribution | 0.32% |

Repeated from above:
| SMILES | target or system | test | system | setting | how to read | quantity | value |
| --- | --- | --- | --- | --- | --- | --- | --- |
| COc1ccc2cc1Oc1ccc(cc1)C[C@H]1c3cc(c(OC)cc3CCN1C)Oc1c(OC)c(OC)cc3c1[C@H](C2)N(C)CC3 | SLC47A2 | transport activity, inhibitor |  | 10 µM, 10 (unit not given), together with: thiamine |  | inhibition | 27% |
